Measured values gathered from unrelated publications.
Every numbered part comes from another study and shows a few of its results, in no order. Positions count from the first letter of the parent shown.

Study 1
Target: CEBPA, bZIP domain (human)
Method: DHFR protein complementation
Matrix: yeast
Setting: single substitutions, most at no-binding floor
Reference: wild-type JUN-FOS pair
Reading: higher = stronger binding
Endpoint: binding fitness
Starting sequence: JUN, bZIP domain (human); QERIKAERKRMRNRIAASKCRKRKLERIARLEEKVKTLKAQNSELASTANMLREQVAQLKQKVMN; partner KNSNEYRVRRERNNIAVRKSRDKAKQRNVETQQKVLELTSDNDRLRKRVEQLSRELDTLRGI
R53N: -1.48 natural log
N42T: -1.51 natural log
V56K: -1.64 natural log
R53A: -1.27 natural log
E44D: -1.44 natural log
Q41L: -1.47 natural log
K36H: -1.53 natural log
K36N: -1.43 natural log
R53H: -1.35 natural log
A49P: -1.47 natural log
M51R: -1.43 natural log
L31W: -1.46 natural log
E32D: -1.43 natural log
E32V: -1.38 natural log
E32W: -1.49 natural log
L59G: -1.35 natural log
A40M: -1.4 natural log
E54M: -1.46 natural log
L31S: -1.32 natural log
R30M: -1.52 natural log

Study 2
Target: RNA binding protein fox-1 homolog 2, RRM domain, GST-SBP tag (RBFOX2, Homo sapiens, UniProt O43251-10, residues 100-194)
Method: RNA Bind-n-Seq
Form: RNA
Matrix: in vitro
Tested at: 365 nM
Setting: natural RNA segment, single round, ends assumed
Reference: no-protein control
Reading: higher = stronger binding
Endpoint: RBNS enrichment (R)
Constant ends, left off below: GGGAGUUCUACAGUCCGACGAUC … UGGAAUUCUCGGGUGCCAA
GCUGCCUAUGUUUCUUUUUAAAGCUCGCAUUCCCAGAAUCAGCUUAGGCUUCUAUGAAUUCAGCCUGUUUCUAAAAGCUGAAAAUCUCAGUUUAAAAAUCAAAAUGUUAA: 1.09
CUGAGUACAGCUUAGAUGUUAGCUGGAGAGGAAGAUGGUGUGGCAGGUCUCUGGUCUCCCUACCCCUGCUGUGCUGAUCACAGUCCCUCCCAGUUACCACUAGGACAUUC: 0.42
CCAGUGAAAGCUGUCCUUCCUGUAUUCUGUUCUCUGGUAAUGUAAUAAGCAUGAUGGUGCCUUCUAUUACAUCAUUCCAGUCUUGCUGGUGAUCCUGUACGGUGUGGUCU: 2.35
UCUCCCCUCAUACACAAAAGUACAAUAUGAAGCCUUCAUUUAAUCUCUGCAGUUCAUCUCAUUUCAAAUGUUUAUGGAAGAAGCACUUCAUUGAAAGUAGUGCUGUAAAU: 0.54
UUAUAUUUUCAAACAUGGCAAGUUAAAAUAUAAAUUCAUUUAAAUAUAUAGUUUUGUACUUUUCUACCAUGUAAAUGUGCAAUGUAUAUAAAAGUUAUAAUGUGUAUUUG: 0.701
UUAGCAAUCUAUUGGGUCAACUGACAUCCAUUGUAUAUACUAGUUUCUUUCAUGCUAUUUUUAUUUUGUUUUUUGCAUUUUUAUCAAAUGCAGGGCCCCUUUCUGAUCUC: 1.29
CACAAUCGUGCAUAGAAUUGCCUCAAGUCCUGGUGAGAGAGAUGCCGUGGUACUUUUCCAUUUAGAUUCAAAUGGAGCUAAAAUUAAGAGUUUUAUGAGCUGUUAAGAAU: 0.418
UUCAAACAAAAUUGGCGUAACUGUUUCAUCUUUAAGUAGCAGUUUGCUGCCAUUUGUAUUCAGCUGAAGAAGUCACUAUUGUGUAUAUACUCAAGGCUUCUUAUUUUUCU: 0.449
CUGGGAAUUUUCUUUUUCCUGAAACUUUGAAUCACCCUAGUAAGUCAAAGUACUAAAAAAUGUACUAGAUCAUUAAGACUUAUGUGCUCUUACUGAUUGAAAGAUUUUUU: 0.399
GCACUUCCGCAUCUGCCCGUGGGCGCCCCACAGCUGCCCCUCAGCCGCUGAGAUCCAGUGUCCAAGCUGCGGCCAGGAGUCCACCCACCUCCGCAUCCACCCCCGUCCGC: 0.552
UCUUUAGUUACAUUCAGAUUUGUAACUUUAUAAACAUGUUUUCUGCCUGAGGUACUUUUUAAGGAGGUAGUGUACAUGGGACCUUUUUGAAGUAGACUGGAUAAGGGCCA: 0.817
CAUGAAUGAUAACAGGCCUCGGCUUUAUCACCCAAAAAAUAACUUGAAUUCUAUGUGAAAUGUGUUAGGAUAAGUUUGCUCUGUCUCUAGAGUUCAAUGUAGAAGAUAAU: 1.59

Study 3
Target: Histone acetyltransferase KAT6A, both winged helices, GST fusion (KAT6A, Homo sapiens, UniProt Q92794, residues 1-181)
Method: protein binding microarray
Form: double-stranded DNA, one strand shown
Matrix: in vitro
Tested at: not given
Setting: 8-mer, flanks averaged, mean of 2 arrays, mostly near background
Reference: not given
Reading: higher = stronger binding
Endpoint: E-score
Residues (chain): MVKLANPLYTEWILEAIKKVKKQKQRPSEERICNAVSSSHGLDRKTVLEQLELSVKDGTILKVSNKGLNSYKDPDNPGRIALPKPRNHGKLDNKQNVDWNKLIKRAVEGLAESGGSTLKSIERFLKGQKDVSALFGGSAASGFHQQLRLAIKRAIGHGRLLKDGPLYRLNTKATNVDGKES
TCTTGCAA: 0.0518
GAAATTCA: -0.00924
ATACGCTC: 0.109
ACTATCGC: 0.0056
CTCTCCGC: 0.061
ACCATGAT: -0.136
CAATGATG: -0.13
CAAGTATA: -0.117
AGCTAAAT: -0.133
CAGGGGTA: -0.201
GCTAAGCA: 0.0708
ATACAATC: -0.0783
GAGGCGCA: 0.178
ACCGTGGG: 0.0272
CTTTAAAA: -0.0889
ATCTCAGA: -0.12

Study 4
Target: Sal-like protein 4, full length isoform B (SALL4, Homo sapiens, UniProt Q9UJQ4-2, residues 1-616)
Method: universal PBM
Form: double-stranded DNA, one strand shown
Matrix: in vitro
Tested at: not given
Setting: 8-mer, flanks averaged, mean of replicates
Reading: higher = stronger binding
Endpoint: E-score
Target sequence (chain): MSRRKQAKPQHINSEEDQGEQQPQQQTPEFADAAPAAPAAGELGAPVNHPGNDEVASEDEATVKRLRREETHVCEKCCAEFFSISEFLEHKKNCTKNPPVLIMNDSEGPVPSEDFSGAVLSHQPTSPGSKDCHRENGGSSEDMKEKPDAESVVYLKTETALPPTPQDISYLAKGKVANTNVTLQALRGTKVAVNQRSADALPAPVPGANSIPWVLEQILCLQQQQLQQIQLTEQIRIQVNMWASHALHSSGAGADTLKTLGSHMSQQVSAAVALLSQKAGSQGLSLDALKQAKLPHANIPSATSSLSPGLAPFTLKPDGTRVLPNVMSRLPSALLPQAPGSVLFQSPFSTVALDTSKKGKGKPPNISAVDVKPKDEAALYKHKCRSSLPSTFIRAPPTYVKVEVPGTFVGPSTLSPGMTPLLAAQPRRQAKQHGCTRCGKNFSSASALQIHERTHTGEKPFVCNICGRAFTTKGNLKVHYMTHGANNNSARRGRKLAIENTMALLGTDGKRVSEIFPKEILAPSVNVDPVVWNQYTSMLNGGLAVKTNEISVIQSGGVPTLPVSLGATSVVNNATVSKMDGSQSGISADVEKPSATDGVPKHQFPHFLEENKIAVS
CCCTCCAG: -0.305
ATAGCAAG: 0.167
ATATCCTA: 0.153
GCAAGCCC: -0.303
AGATAACC: 0.0455
CTGACCCA: -0.12
CAAGTGAG: -0.0884
TAGCTGGA: -0.0839
GAGAGGAC: -0.105
ATCGGAAT: 0.167
GGTAAACC: -0.126
CAGGAGTA: -0.0268
GTTTGCAA: 0.123
GAGGCCAA: -0.148
AAACTATT: 0.302
CAAAGACA: 0.0339
AGATTGCG: -0.0035
CTGATCGC: -0.137
ACCGGCTA: -0.293

Study 5
Target: CCNA1, cyclin fold, Cln2 fusion (human)
Method: yeast growth competition, sequencing
Matrix: yeast
Setting: weak parent motif
Reference: not given
Reading: higher = stronger binding
Endpoint: normalised enrichment score
Starting sequence: MICAL3 docking peptide (human); LQLRRQLSFSEDS; partner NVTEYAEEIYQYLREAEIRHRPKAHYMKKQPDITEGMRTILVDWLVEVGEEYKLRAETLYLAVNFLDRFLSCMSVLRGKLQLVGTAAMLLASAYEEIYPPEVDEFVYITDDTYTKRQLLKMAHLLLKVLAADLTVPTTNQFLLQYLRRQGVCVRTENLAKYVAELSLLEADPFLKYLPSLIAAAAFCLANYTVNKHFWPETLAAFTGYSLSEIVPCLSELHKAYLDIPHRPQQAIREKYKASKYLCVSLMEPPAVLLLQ
R4A: 0.317
S8V: 0.342
R4C: 0.0875
E11F: 0.106
F9S: 0.293
R4D: -0.227
Q2Y: 0.224
S10R: 1.29
S10D: 0.312
L3V: 1.65
D12L: 0.586
L3R: 0.561
R5L: 0.0721
R4H: -0.0502
R5H: -0.0482
R4G: -0.151
F9E: -0.0197
S10Q: 0.23
D12A: 0.479
S8D: 0.849
S10W: 0.203
S8W: 0.224
Q2I: 0.023
L7S: 0.0476
D12S: 0.136

Study 6
Target: RING finger protein unkempt homolog, zinc fingers 1-6, GST-SBP tag (UNK, Homo sapiens, UniProt Q9C0B0, residues 30-357)
Method: RNA Bind-n-Seq
Form: RNA
Matrix: in vitro
Tested at: not given
Setting: RNA with constant flanks, human-mouse chimeric sites, ends assumed
Reference: input RNA pool
Reading: higher = stronger binding
Endpoint: bound/input enrichment
Constant ends, left off below: GGGAGUUCUACAGUCCGACGAUC … CAACAGAGGAUUGAGCAUCA
Target sequence (chain): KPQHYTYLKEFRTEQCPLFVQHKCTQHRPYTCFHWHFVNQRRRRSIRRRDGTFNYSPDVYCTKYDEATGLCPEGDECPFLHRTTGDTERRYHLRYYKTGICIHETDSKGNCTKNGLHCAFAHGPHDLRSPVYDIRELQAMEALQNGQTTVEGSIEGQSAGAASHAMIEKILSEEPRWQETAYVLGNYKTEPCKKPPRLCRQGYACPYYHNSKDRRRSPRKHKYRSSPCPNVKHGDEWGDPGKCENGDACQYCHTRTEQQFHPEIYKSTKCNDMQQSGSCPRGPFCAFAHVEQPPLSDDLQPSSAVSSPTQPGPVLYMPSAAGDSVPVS
GUAGCUGGCCAUUAGGAAAUGCUGGUAAUUUCAGUCACUUGCUGAUGACUUCUGAUGUCCCAGCAAAUGUUGGCAUUGUUGACUGCUGAGAAGAUACUUCUGAGGACAUACAGCAGUGGU: 0.497 ratio
AAAUCGUGUGUGUCCAAUAUUGAAAGUGCUUUAUCUACACUCCAAUAUGUAAGCAGUAUAGUAGUUUCUUUAGAGAAUAGGUCAGCCAUUGUAAAGUACAAUGCAAGCUUAGUCACUCCA: 11.8 ratio
CGGAGCCCUCCUCUCCCACAGGCCCAAGAUGUGACCCACCAGUGCCUUUUGUCUUCCUGUCAGCUCUGUCAAUCACGGCCCUGCCUUCACGCCCACACCAAGUGCCCAAAGUGGGGAGGG: 0.282 ratio
UGACAAGCACGAGCAUCAGCCAUGCCUUUCCUUGACAUCCAGAAAAGGCUGGGCAUCAGCCUGGACCGGCACUUUAUGUUCCUAAGCGCAGAACAGCCCUAUAAGAACGCCGCUCGGUGC: 0.0628 ratio
AUUCCGAUUAUGGACACCGGUGAAAACCCAGAGGUUCCCUUCCCUCGGGACAUGAUCGACUUAGAGGCCAAUUUUGAGAAGAUUGAAAAUGAACUGAAGGAAAUCAACACAAACCAGGAA: 0.11 ratio
UUAAACACCAAGCUGAUGGACUCUGAUGGCCUCCAUCUCUCAGGCACGUGUGCCUUCUCUUAGUUAUUGUUUUCGGGAUGUUAUGAAUCUCAGUACUGUGGUUUGAAAGCACCAGCUUUG: 4.61 ratio
GCAGGAUCUUCUAAGUACCAGUGGGGCAUUAUGAAAUCCCUUGGCCUCUCUGAUGACGACAUAGUGAAGUUUUCUGAAGCAGAGCACUGGCUUGAUUAUUUCCCACCACUGGCCGUUCAG: 0.146 ratio
GGAAGUACAAUGAUGGAGAUUGAUGGUGACAAAGGCAAGCAGGGCGGGCCCACCUACUACAUAGAUACCAAUGCCCUCCGCGUGCCCAGGGAGAACAUGGAGGCCAUUUCACCUCUAAAG: 0.351 ratio
UUUCUACUGCAGCAAACGAUGCUAAGAGUGAAGGAUCCUAAGAAGUCCCUGGAUUUUUAUACGAGGGUUCUUGGACUGACCCUCCUGCAGAAGCUUGAUUUUCCCAUUAUGAAGUUCUCG: 0.188 ratio
UCCCAAAUCCAGCAGCUAGAAGGAGCCUUGAGACAAAGCCUGGAAAUGCAGGGAGGGCGAUAACAUUGUACAUUGGUUUACAUUUUUUCCCCCUGUGGAUUUUUCUAGAGGUCAUAGUGC: 0.391 ratio
GAGUCGAGCAAACUUGAAACUACAGAAUAUCUUGCAGCCUCAGUGUUCACUUGCUUGGCGAUAGCAUUGGGGUUUUAUAUAGAUUCUAAGGAGAACUGACGAUGAUGCUGCCGCUGCUGC: 0.235 ratio
